Measured values gathered from unrelated publications.
Every numbered part comes from another study and shows a few of its results, in no order.

Sample 1 — technique: universal PBM; form: double-stranded DNA, one strand shown; sample: in vitro; tested at: 600 nM; direction: higher = stronger binding
Target: Sal-like protein 4, full length isoform A (SALL4, Homo sapiens, UniProt Q9UJQ4, residues 1-1053)
UniProt Q9UJQ4, sequence (whole entry, looked up): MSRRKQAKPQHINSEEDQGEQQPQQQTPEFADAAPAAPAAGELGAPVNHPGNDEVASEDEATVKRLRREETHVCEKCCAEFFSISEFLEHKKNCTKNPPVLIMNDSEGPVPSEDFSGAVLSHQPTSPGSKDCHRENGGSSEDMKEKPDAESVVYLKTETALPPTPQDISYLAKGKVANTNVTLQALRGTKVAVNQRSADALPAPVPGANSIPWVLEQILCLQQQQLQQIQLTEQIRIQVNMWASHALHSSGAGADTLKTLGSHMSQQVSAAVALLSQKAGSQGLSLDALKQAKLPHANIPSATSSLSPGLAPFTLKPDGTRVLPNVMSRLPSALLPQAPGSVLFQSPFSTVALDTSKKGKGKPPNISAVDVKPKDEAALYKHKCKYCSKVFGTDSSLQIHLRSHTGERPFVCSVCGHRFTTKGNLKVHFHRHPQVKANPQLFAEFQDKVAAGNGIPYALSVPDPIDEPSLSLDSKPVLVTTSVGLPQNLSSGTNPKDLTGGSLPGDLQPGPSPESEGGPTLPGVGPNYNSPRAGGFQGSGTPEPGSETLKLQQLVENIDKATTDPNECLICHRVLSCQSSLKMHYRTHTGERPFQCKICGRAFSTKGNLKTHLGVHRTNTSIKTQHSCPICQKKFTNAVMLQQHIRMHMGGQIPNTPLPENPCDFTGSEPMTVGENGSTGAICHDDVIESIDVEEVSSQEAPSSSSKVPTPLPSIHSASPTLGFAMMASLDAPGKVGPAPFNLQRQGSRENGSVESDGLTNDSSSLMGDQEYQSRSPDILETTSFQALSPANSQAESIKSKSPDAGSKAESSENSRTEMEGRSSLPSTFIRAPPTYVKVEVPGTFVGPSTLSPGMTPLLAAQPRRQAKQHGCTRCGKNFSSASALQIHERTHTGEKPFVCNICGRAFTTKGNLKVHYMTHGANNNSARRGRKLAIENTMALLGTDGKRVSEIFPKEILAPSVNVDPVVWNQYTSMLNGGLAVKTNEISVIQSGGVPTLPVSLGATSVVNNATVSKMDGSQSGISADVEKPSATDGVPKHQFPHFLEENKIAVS
Notes: 8-mer, flanks averaged, mean of replicates
| Sequence | E-score |
| --- | --- |
| AGATGGTC | -0.202 |
| CTTAGATC | -0.0666 |
| ATGTTTAA | 0.305 |
| CGCCACAC | -0.219 |
| CGCAGATC | -0.277 |
| ATGGGCGG | -0.233 |
| ATTCATTA | 0.39 |
| GCTTTGGA | -0.00145 |
| CGGGAACC | -0.327 |
| AATTTTAG | 0.236 |
| AAAACCGT | 0.104 |
| ATCGCAGA | 0.0198 |
| AAGGTGCT | -0.0679 |
| CATCATAG | 0.0964 |
| CCGCTGGC | -0.294 |
| CGAGTAGA | -0.116 |
| CGAAATGA | 0.155 |
| AAAGAGTG | -0.0256 |
| AATATTTG | 0.422 |
| GCTACGTA | 0.0337 |
| ACCGGCCA | -0.333 |

Sample 2 — technique: protein-binding microarray; form: double-stranded DNA, one strand shown; sample: in vitro; tested at: 940 nM top; notes: 60-bp whole probe; together with: salmon DNA 0.4 mg/ml; relative to: random background probes; direction: higher = stronger binding; shared flanks, not repeated: GCCTAGCAC … GTCTTGATTCGCTTGACGCTGCTG
Target: Interferon regulatory factor 5, full length, phosphomimetic (IRF5, Homo sapiens, UniProt Q13568-2, residues 1-514, S451D/S453D/S456D/S462D)
| Sequence | fitted relative affinity [z-score] |
| --- | --- |
| TGAGGTTTCGGTCTCGGTTAGTGCTAG | 12.2 |
| GACGATTTCGGGTTTCGAGATGTGCTA | 2.14 |
| GACTATTTCGGGACTGGAGACGTGCTA | 0.135 |
| TTAGATATCAGACTGGTTTAGTGCTAG | 0.105 |
| ATATCTAAAAAGTCTCTGGGAGTGCTA | 0.614 |
| TCATTTTTCTGCTTAGAACTGTGCTAG | 0.57 |
| GACGGTCTCGCACTGGGGACGTGCTAG | 0.0946 |
| TCAGCTTTCATTTATTTACTGTGCTAG | 1.63 |
| TCAGCTTCCATTTTCTGACTGTGCTAG | 0.755 |
| AGTCGTGAGCCGCACAGTGGGTGCTAG | -0.523 |
| TTAGAACTGGGGTATCCATTAGTGCTA | 0.126 |
| TTAGCTTTCGGGACTGGATTAGTGCTA | 2.15 |
| TTAGATTTCGGAACTGGATTAGTGCTA | 0.496 |
| TCATGTTTGGGTCTTGTACTGTGCTAG | 0.369 |
| GACGATCTCTGTCTCGAGACGTGCTAG | 0.728 |
| GACGGACTGGGACTCGGGACGTGCTAG | -0.216 |
| TTAGGACCGGGTCTCGGTTAGTGCTAG | 1.24 |
| TCAAGTTTTCCTATGTCACTGTGCTAG | 0.956 |
| GACGATATCAGACTCGAGACGTGCTAG | -0.426 |
| GACGATCTCCGTTTCGAGACGTGCTAG | 1.25 |
| GACGGTTTCCTTCCCCTGACGTGCTAG | 1.57 |
| GACGGTCTCCGTTTCCTGACGTGCTAG | 0.509 |

Sample 3 — technique: protein binding microarray; form: double-stranded DNA, one strand shown; sample: in vitro; tested at: not given; relative to: not given; direction: higher = stronger binding
Target: Histone acetyltransferase KAT6A, winged helix 1, GST fusion (KAT6A, Homo sapiens, UniProt Q92794, residues 1-85)
Notes: 8-mer, flanks averaged, mean of 2 arrays, mostly near background
Construct (chain): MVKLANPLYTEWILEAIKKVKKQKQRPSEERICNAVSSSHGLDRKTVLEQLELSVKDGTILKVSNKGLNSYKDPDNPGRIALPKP
| Sequence | E-score |
| --- | --- |
| CATAGGTA | -0.155 |
| CAACCTGC | 0.0726 |
| CACATACC | -0.0162 |
| ACCACTAT | -0.246 |
| CGGGCCAG | 0.131 |
| ATCTTGAA | -0.192 |
| GCGACTCC | 0.219 |
| CTAAGTGA | -0.104 |
| ACGCCTCT | -0.0469 |
| ACACATGA | -0.108 |
| ATACATGA | -0.0903 |
| ATCAATCC | -0.0612 |
| TAGGCTGA | -0.095 |
| ACTACTCA | -0.176 |
| GTCAGGGA | -0.116 |
| CTCTTTCA | -0.0922 |
| TCAGTCCA | -0.263 |
| TACACTAA | -0.11 |

Sample 4 — technique: RNA Bind-n-Seq; form: RNA; sample: in vitro; tested at: 100 nM; relative to: input RNA pool; direction: higher = stronger binding
Target: RING finger protein unkempt homolog, zinc fingers 1-6, SBP tag (UNK, Homo sapiens, UniProt Q9C0B0, residues 30-357)
UniProt Q9C0B0, sequence (30-357, looked up): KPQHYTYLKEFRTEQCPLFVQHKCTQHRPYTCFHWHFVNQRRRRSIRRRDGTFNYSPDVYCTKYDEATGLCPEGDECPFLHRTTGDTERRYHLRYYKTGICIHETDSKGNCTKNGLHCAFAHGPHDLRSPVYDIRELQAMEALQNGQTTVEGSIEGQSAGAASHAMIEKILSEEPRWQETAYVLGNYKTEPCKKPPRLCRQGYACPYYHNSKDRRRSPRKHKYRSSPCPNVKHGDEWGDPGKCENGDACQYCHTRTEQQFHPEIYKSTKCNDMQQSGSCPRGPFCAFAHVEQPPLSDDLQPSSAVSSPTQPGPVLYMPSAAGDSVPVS
Notes: RNA with constant flanks, vertebrate orthologous sites, ends assumed
Shared flanks, not repeated: GGGAGUUCUACAGUCCGACGAUC … CAACAGAGGAUUGAGCAUCA
| Sequence | bound/input enrichment |
| --- | --- |
| CCUACAAUAAUGAAAACCUACAAGAAUUUUUUUAUUUUUCAUUUUCCCCUUAGGCAUAUUUAGUAUUUUUUCCCCAGGCAGAUCAUUCUGAGUGUGCGAGUGUGUGUGCACAUGUUACAA | 3.73 ratio |
| CUCUAUGGGCCUCGCAGAGUUGAAAUAAUGGAAGAGGAAAGUGAACAGUAAUCUCCAUUUUAGUAUUUAUGCUUAGGUGUGAAAUAAAUGUUAUUUGUUGAUCAUUUCUAUAAUCCAGAG | 0.876 ratio |
| AUUCAUCUCUUACUUAGUGUCCAAAAUUACUGAGGGUUUGAAACAUUCAGUAAUUUCACAUAGAGCUACAUUGGCAGGUGCUUUAAUACUAUCAUAGUGAGAUCAGAUACCAUUGUAGUA | 0.6 ratio |
| CAUUGUAUCCUGCUGUAUAAUAAACAAUCUUAAACAUUUAUCAACUGUUGAUACAAAUGUUAGUCCCUAACCACUUUUUAUAUGUUUUAAAUUUUUGAAAUUCAAGUGUACCUGCCAUAA | 1.25 ratio |
| GCAAAGGAAAAGCAGCCCUUCUCCCAGCCCCUUUUUCACUAGGAGAUACAAACGUUACCAUAGAAGAGCAAUUAAACUCAAUAAAUUUAUCUUUUCAGGAUGAUCCAGACUCCAGUACCA | 1.4 ratio |
| CUAUCUAGUCUUUUAGGAUCAGCCUCAAAUCUAUAGGAUUUACAACAAAUGUAUUAUAUAAUCUAGUUGAGAUUAAUAUUUUUUUAUUAGCCUGUAAAUAAAGAUGGCAUCUUCUACCUU | 0.455 ratio |
| CCCGCCUCCUGCGGGGGUGUGACCGAGGCCAAAGCAUCCACCGUUGCUGCGAGGGGUCCACGGUAUUUUUUUUUUUGCUGCCUCAGUCCCCAGAGCCUUCAAGCAACAGUGGCAGUAGAU | 0.382 ratio |
| CAUUGUAUCCUGCUGUAUAAUAAACAAUCUUAGACAUUUAUCAACUGUUGAUACAAAUGUUAGUCCCUAACCACUUUUUAUAUGUUUUAAAUUUUUGAAAUUCAAGUGUACCUGCCAUAA | 2.52 ratio |
| UUGGGAGCAGCUCUCCAAAUAGAAAUAGUAGUAAAAAAACCAAACAAAAUGAUAUUUGUGUAGAAAAAACGGAAGUUAAAUCAUGGAAAGUAAAUGCUGCCAGUGUUCCAGGUCCUAAAG | 1.82 ratio |
| CCUUCUGUAGAGAACAAUUUUCACUGAAGCCAUUGGCAAAUUCCCCCCACCAGACUUUUCUUUGGAGCUCUUUAAUUUCGUACAAUCUUGCUGUGUUGGUCAUUGUUAGCCCUGAAUCCA | 0.862 ratio |
| GUGCAAGGAAAUUAUCCCAACUAGUGAAUUUAUUAACAGUAAGUUGACAGCAAAAGCAAAUAGGCAGCUUCAGGAUCCUUUAGUAAUCAUGACGGGAAACAUCCCAACAUGGCUUACUGA | 0.853 ratio |

Sample 5 — technique: protein-binding microarray; form: double-stranded DNA, one strand shown; sample: in vitro; tested at: 0.8 µM; notes: whole 60-bp probe, no competitor; direction: higher = stronger binding; shared flanks, not repeated: … GTCTTGATTCGCTTGACGCTGCTG
Target: Centromere-binding protein 1, full length, N-terminal tag (CBF1, Saccharomyces cerevisiae, UniProt P17106, residues 1-351)
UniProt P17106, sequence (whole entry, looked up): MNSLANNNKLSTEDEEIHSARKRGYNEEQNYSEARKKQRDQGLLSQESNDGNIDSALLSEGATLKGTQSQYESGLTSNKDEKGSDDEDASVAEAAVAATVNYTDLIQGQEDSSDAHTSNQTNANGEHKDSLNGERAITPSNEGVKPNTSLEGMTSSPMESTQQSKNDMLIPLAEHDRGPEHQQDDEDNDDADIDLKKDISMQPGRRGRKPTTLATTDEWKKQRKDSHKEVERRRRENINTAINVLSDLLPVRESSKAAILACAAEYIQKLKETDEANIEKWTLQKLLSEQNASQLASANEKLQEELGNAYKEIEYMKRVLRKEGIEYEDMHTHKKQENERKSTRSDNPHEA
| Sequence | fluorescence intensity [a.u.] |
| --- | --- |
| GAAACTTTTACACCTCTGCTGATATTTTAAATATAG | 530 |
| GAAATAAAAGAAAAACACGTTTGAAAAAAGAAATAG | 636 |
| GAACAGCCTCGTCATCACCCAATAAAGAGTTTATAG | 552 |
| CTAACCTTTTGAAGTGGTGACGTTACCGCTCTTTTC | 503 |
| GAACACAGAATGAATTTCATCACGTGCGTATTATAG | 11500 |
| CTATACATATTTGGTTGCGTGGTATATAGAATCTTC | 573 |
| CTACGAATTGAAGTTCTGCTGATCTTGAACAATTTC | 552 |
| GAATCTTTACCTCGCCACGCGGAATAGTAAAACTAG | 532 |
| GAACGTGCGACGACTCATGTGTGTTAGATTGGGTAG | 562 |
| GAATAGAAAGTGACATATCACATGTATGGTAGTTAG | 1550 |
| CTAGTCACTTTTCATCACGTGTGTATTTAAGTATTC | 7730 |
| CTATGATGAGGCGGAAACGTGCAAGATCCTAAATTC | 610 |
| CTAAAAGTCATCTGGCACGTTTAATTATCAGAGTTC | 676 |
| CTAAAAGGTTTTTTACAGCTGATGATTGATGCATTC | 530 |
| TGTACGAAGCTATGTAACTTAATTATAGTAGTTAGG | 508 |
| CCTAACTACTATAACGTGGTTAGATAGCTTCGTACA | 619 |
| CTATAGTGAATATATCACGAGTTACAATAGAGTTTC | 1100 |
| CTAGGACGCGCCGCTCACCCGCACGGCAGAGACTTC | 464 |
| CTAGGAGAAAAGTCACGTGCAAAAAGAAATCATTTC | 16700 |
| CTAAAGACTGACAGTCACGTTGAGTCCTATTATTTC | 1310 |

Excerpt of the above (sample 2):
| Sequence | fitted relative affinity [z-score] |
| --- | --- |
| TTAGCTTTCGGGACTGGATTAGTGCTA | 2.15 |
| TTAGATTTCGGAACTGGATTAGTGCTA | 0.496 |
| TCATGTTTGGGTCTTGTACTGTGCTAG | 0.369 |
| GACGATCTCTGTCTCGAGACGTGCTAG | 0.728 |
| GACGGACTGGGACTCGGGACGTGCTAG | -0.216 |
| TTAGGACCGGGTCTCGGTTAGTGCTAG | 1.24 |
| TCAAGTTTTCCTATGTCACTGTGCTAG | 0.956 |
| GACGATATCAGACTCGAGACGTGCTAG | -0.426 |
| GACGATCTCCGTTTCGAGACGTGCTAG | 1.25 |
| GACGGTTTCCTTCCCCTGACGTGCTAG | 1.57 |
